# Measurements from different studies.
# ± marks the error that the study gave.
SMILES,test,system,setting,scale,quantity,value
O=c1c(Cl)c(Cl)cnn1Cc1ccccc1,,liquid growth medium,,,precipitation onset concentration,50 to 100 µM
COC(=O)c1ccc2c(c1)NC(=O)/C2=C(\Nc1ccc2c(c1)CCN2C(=O)CN1CCOCC1)c1ccccc1,,"cynomolgus monkey, plasma","oral, 5 mg/kg",,bioavailability,25%
[11CH3]c1ccc2nc(C3CCC3)n(-c3ccc4[nH]ncc4c3)c2n1,,"human male, ovaries",,,absorbed radiation dose,3.4 µSv/MBq
"CNC(=O)N[C@]1(C)CCC[C@@]2(C)C3CC[C@@]4(C)C[C@]3(CCC21)CC4=O (single isomer, unassigned)",,processed rat plasma,"1.5 ng/mL, 24 h, 4 °C, autosampler stability",,measured concentration,1.46 ± 0.04 ng/mL
O=C(O)[C@@H]1C[C@@H](O)CN1C(=O)[C@@H]1CCCN1,potentiometric titration,water,"40 °C, 0.15 mol/dm3 NaCl",,pKa3,10.4
COc1cc(NC(C)=O)c2c(c1O)-c1c(OC)c(OC)cc3c1C(C2)N(C)CC3 (stereo not drawn),,"Wistar rat male, plasma","intravenous, 100 mg/kg",,terminal slope,0.359 ± 0.158
Cn1c(=O)oc2ccc(-c3ccc(CC(C#N)NC(=O)C4CNCCCO4)c(F)c3)cc21 (stereo not drawn),refers to: blood triglycerides increased,human,"40 mg single dose, fasted",,subjects with TEAE,25%
COc1cc(-c2nc3ccccc3s2)cc(CN(C)Cc2ccccn2)c1O,UV-vis spectrophotometric titration,"MeOH-water, MeOH up to 20%",50 µM,,pKa3,7.64
CCCCCCCC(=O)OC[C@H](NC(=O)[C@H](CO)NC(=O)CN)C(=O)N[C@@H](Cc1ccccc1)C(=O)N[C@@H](CC(C)C)C(=O)N[C@@H](CO)C(=O)N1CCC[C@H]1C(=O)N[C@@H](CCC(=O)O)C(=O)N[C@@H](Cc1cnc[nH]1)C(=O)N[C@@H](CCC(N)=O)C(=O)N[C@@H](CCCNC(=N)N)C(=O)N[C@H](C(=O)N[C@@H](CCC(N)=O)C(=O)N[C@@H](CCC(N)=O)C(=O)N[C@@H](CCCNC(=N)N)C(=O)N[C@@H](CCCCN)C(=O)N[C@@H](CCC(=O)O)C(=O)N[C@@H](CO)C(=O)N[C@@H](CCCCN)C(=O)N[C@@H](CCCCN)C(=O)N1CCC[C@H]1C(=O)N1CCC[C@H]1C(=O)N[C@@H](C)C(=O)N[C@@H](CCCCN)C(=O)N[C@@H](CC(C)C)C(=O)N[C@@H](CCC(N)=O)C(=O)N1CCC[C@H]1C(=O)N[C@@H](CCCNC(=N)N)C(=O)O)C(C)C,,chronic HFrEF patients,"intravenous infusion, 0.1 µg/kg/min, end of 120 min infusion",,heart rate,67 ± 11 bpm
CC12CC(c3ccc(S(C)(=O)=O)cc3)C3=C4CCC(=O)C=C4CCC3C1CCC2(O)C(F)(F)C(F)(F)F (stereo not drawn),,"human, plasma","oral, 4 mg, single dose alone, geometric mean",,apparent oral clearance,12.3 L/h
CCN(CC)c1ccc2c(-c3ccc(S(=O)(=O)NCCNC(=O)CN4CCN(CC(=O)[O-])CCN(CC(=O)O)CCN(CC(=O)[O-])CC4)cc3S(=O)(=O)[O-])c3ccc(=[N+](CC)CC)cc-3oc2c1.[64Cu+2],microPET imaging,"athymic nude mice, U-87 MG glioma xenograft","250 µCi, 24 h post-injection",,tumour uptake,4.75 ± 0.56 %ID/g
CC(C)[C@H](NC(=O)CNC(=O)[C@H](CCC(N)=O)NC(=O)[C@H](C)N)C(=O)O,,human,across phase I studies,,clearance,≥ 13 L/kg/h
NC[C@@H](C(=O)Nc1ccc(-c2cn[nH]c2)cc1)c1ccccc1,OECD 405 eye irritation,"New Zealand White rabbit, eye","topical, 0.1%, 49 h (day 3), scale 0 to 2",direction not given,iris score,0
Nc1nccc(-c2cn(C3CC3)c3ccccc23)n1,LC-RAM/HRMS,"human male, plasma","oral, 110 mg, 4 h",reference: total radioactivity,share of radioactivity,10%
COc1ccnc(C[S+]([O-])c2nc3cc(-n4cccc4)ccc3[nH]2)c1C (stereo not drawn),,"male Sprague Dawley rats, plasma","oral, 10 mg/kg ilaprazole racemate",,CL/F,418 ± 170 mL/min/kg
NC12CNCCNCC(NCc3ccc(CNC(=O)CCCC(=O)NCc4ccc(-c5nncnn5)cc4)cc3)(CNCCNC1)CNCCNC2.[64Cu+2],OLINDA dosimetry,gallbladder wall,"pretargeting, 48-h interval",,mean absorbed dose,0.0368 rad/mCi
CC(C)(C)NCC(SS(=O)(=O)O)c1ccccc1 (stereo not drawn),,"Swiss Webster CFW mouse, female, plasma","intravenous, 15 mg/kg, from 0 h to infinity",,MRT,10.1 min
C[N+](C)(C)C[C@@H](O)CC(=O)O.O=C([O-])[C@H](O)Cc1ccccc1,thermogravimetric analysis,,"5% mass loss, nitrogen",,decomposition temperature,76.1 °C
NC(=O)[C@@H](CCCCNC(=O)CNC(=O)CCC(=O)NCCc1c[nH]cn1)NC(=O)[C@@H](CCC(=O)O)NC(=O)[C@@H](CCCCNC(=O)CNC(=O)CCC(=O)NCCc1c[nH]cn1)NC(=O)[C@@H](Cc1ccc(O)cc1)NC(=O)CN1CCN(CC(=O)O)CCN(CC(=O)O)CCN(CC(=O)O)CC1 [indium-111 labelled],SPECT,human CEACAM5 tumour patients,"dose not given, 24 h, 25 µg IMP288, together with: TF2 75 mg, 1 day interval",,muscle activity concentration,0.21 %ID/kg
O=C(O)C1CN(Cc2ccc(-c3noc(-c4ccc(OCC[18F])c(C(F)(F)F)c4)n3)cc2)C1,,"rat, heart","intravenous, 2 h",,tracer uptake,0.316 %ID/g
COc1ccc(/C=C/c2ccc(-c3ccc(C)cn3)nc2)cc1,,benzene,together with: quinine bisulfate reference,,fluorescence quantum yield,0.53
CSCC(NC(=O)c1cc(Cl)ccc1Cl)C(=O)NC(CC(C)C)B(O)O (stereo not drawn),,"Sprague-Dawley rat, both sexes","oral, 0.30 mg/kg of prodrug",reference: dose,cumulative urinary excretion,≤ 0.888%
Cc1ccc(OCC(=O)N(Cc2cccs2)c2ccn[nH]2)cc1,,"male beagle dog, plasma","intravenous, 1 mg/kg, single dose",,Vd,0.593 L/kg
CC(=O)N[C@H](CC(=O)O)C(=O)N[C@H](Cc1c[nH]c2ccccc12)C(=O)N[C@H](Cc1ccccc1)C(=O)N[C@H](CCCCN)C(=O)N[C@H](C)C(=O)N[C@H](Cc1ccccc1)C(=O)N[C@H](Cc1ccc(O)cc1)C(=O)N[C@H](CC(=O)O)C(=O)N[C@H](CCCCN)C(=O)N[C@@H](C(=O)N[C@H](C)C(=O)N[C@H](CCC(=O)O)C(=O)N[C@H](CCCCN)C(=O)N[C@H](Cc1ccccc1)C(=O)N[C@H](CCCCN)C(=O)N[C@H](CCC(=O)O)C(=O)N[C@H](C)C(=O)N[C@H](Cc1ccccc1)C(N)=O)C(C)C,,"statin-treated high-risk CHD men, plasma","oral, 100 mg daily, day 1, 0 to 2 h, mean, detected subjects only",,AUC(0-t),3.38 ng·h/mL
COCCOCCOCCOCCOCCOCCOCCOCCC(=O)NCCCc1cc2cc3nc(cc4[nH]c(cc5nc(c(OC)c1[nH]2)C(=O)C5(C)C)cc4CCc1ccc(C(=O)O)cc1)CC3(C)C,,DMF,room temperature,,Qy emission FWHM,26 nm
CCOC(=O)c1[nH]c(C)c(/C=C/c2c(I)c(C)c3n2[B-](F)(F)[N+]2=C(C)C(I)=C(C)C2=C3c2cc(OC)cc(OC)c2)c1C,,dichloromethane,,,Stokes shift,578 cm⁻¹
CC/C=C\C/C=C\C/C=C\C/C=C\C/C=C\CCCCOC(CC)C(=O)O (stereo not drawn),[14C] label,"male Wistar rat, feces","oral, 100 mg/kg",reference: dose,excreted radioactivity,40%
O=C(NCCCN(CCCCN(CCCNC(=O)c1cccc(=O)n1[O-])C(=O)c1cccc(=O)n1[O-])C(=O)c1cccc(=O)n1[O-])c1cccc(=O)n1[O-].[89Zr+4],radio-TLC,PBS,"5 d, pH 7.4, 37 °C, together with: Ni^2+ 10-fold excess",,intact complex,98.7 ± 1.9%
CCCC(CCC(=O)O)NC(=O)c1ccc2c(c1)OCO2 (stereo not drawn),LC-MS extracted ion chromatogram,"Sprague-Dawley rat, male and female, pooled plasma","oral, 200 mg/kg, 1 h",,peak area,1.35e+06 cps
COC(=O)C(c1ccccc1Cl)N1CCC2SC(=O)C=C2C1 (stereo not drawn),LC-MS/MS,human plasma extract,"2 ng/mL spiked, 24 h, 4 °C, autosampler",,measured concentration,2.2 ± 0.2 ng/mL

# For quick reference, copied from above:
SMILES,test,system,setting,scale,quantity,value
COCCOCCOCCOCCOCCOCCOCCOCCC(=O)NCCCc1cc2cc3nc(cc4[nH]c(cc5nc(c(OC)c1[nH]2)C(=O)C5(C)C)cc4CCc1ccc(C(=O)O)cc1)CC3(C)C,,DMF,room temperature,,Qy emission FWHM,26 nm
CCOC(=O)c1[nH]c(C)c(/C=C/c2c(I)c(C)c3n2[B-](F)(F)[N+]2=C(C)C(I)=C(C)C2=C3c2cc(OC)cc(OC)c2)c1C,,dichloromethane,,,Stokes shift,578 cm⁻¹
CC/C=C\C/C=C\C/C=C\C/C=C\C/C=C\CCCCOC(CC)C(=O)O (stereo not drawn),[14C] label,"male Wistar rat, feces","oral, 100 mg/kg",reference: dose,excreted radioactivity,40%
O=C(NCCCN(CCCCN(CCCNC(=O)c1cccc(=O)n1[O-])C(=O)c1cccc(=O)n1[O-])C(=O)c1cccc(=O)n1[O-])c1cccc(=O)n1[O-].[89Zr+4],radio-TLC,PBS,"5 d, pH 7.4, 37 °C, together with: Ni^2+ 10-fold excess",,intact complex,98.7 ± 1.9%
CCCC(CCC(=O)O)NC(=O)c1ccc2c(c1)OCO2 (stereo not drawn),LC-MS extracted ion chromatogram,"Sprague-Dawley rat, male and female, pooled plasma","oral, 200 mg/kg, 1 h",,peak area,1.35e+06 cps
